Results of several laboratories.
Parts stem from different laboratories: compare values within a part only.

Sample 1 — method: universal PBM; form: double-stranded DNA, one strand shown; sample: in vitro; concentration: 600 nM; direction: higher = stronger binding
Target: Sal-like protein 4, full length isoform A (SALL4, Homo sapiens, UniProt Q9UJQ4, residues 1-1053)
UniProt Q9UJQ4, sequence (whole entry, looked up): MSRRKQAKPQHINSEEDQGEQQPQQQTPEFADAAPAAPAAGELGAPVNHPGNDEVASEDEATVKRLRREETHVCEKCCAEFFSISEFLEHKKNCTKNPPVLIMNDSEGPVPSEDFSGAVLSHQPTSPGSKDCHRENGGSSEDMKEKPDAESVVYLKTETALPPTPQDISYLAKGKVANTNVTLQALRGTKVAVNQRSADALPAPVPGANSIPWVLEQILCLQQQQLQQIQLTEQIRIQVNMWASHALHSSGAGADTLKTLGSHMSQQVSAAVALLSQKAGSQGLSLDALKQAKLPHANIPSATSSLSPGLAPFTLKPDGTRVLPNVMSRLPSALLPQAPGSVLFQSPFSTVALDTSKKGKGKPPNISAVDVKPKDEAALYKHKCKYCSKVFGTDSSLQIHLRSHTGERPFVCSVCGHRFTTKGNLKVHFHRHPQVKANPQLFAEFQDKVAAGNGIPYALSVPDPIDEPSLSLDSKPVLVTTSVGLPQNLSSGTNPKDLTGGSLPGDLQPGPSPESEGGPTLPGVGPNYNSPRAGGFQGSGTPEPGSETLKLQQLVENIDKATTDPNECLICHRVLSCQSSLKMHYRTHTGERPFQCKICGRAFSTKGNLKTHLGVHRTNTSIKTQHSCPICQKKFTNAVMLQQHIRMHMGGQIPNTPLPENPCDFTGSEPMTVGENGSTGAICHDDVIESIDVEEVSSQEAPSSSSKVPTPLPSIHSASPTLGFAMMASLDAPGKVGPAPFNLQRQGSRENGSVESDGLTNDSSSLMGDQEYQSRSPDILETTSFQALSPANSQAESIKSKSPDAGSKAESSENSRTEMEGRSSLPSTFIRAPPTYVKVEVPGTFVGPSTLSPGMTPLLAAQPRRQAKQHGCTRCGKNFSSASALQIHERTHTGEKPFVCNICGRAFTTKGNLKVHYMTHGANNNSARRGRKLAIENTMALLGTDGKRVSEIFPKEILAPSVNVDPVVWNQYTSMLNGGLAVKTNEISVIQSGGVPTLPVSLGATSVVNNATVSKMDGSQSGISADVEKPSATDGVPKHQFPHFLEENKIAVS
Notes: 8-mer, flanks averaged, mean of replicates
Sequence	E-score
AGAGTCGG	-0.125
GACGACCA	-0.0759
TAATTGTA	0.38
GCGCGTCA	-0.204

Sample 2 — method: RNAcompete; form: RNA; sample: in vitro; concentration: 20 nM; notes: 7-mer, probes averaged, single round; reference: mean of 7-mers; direction: higher = stronger binding
Target: PABPC1L2, full length, GST fusion (mouse, UniProt A0ABA7IW68)
Residues (chain): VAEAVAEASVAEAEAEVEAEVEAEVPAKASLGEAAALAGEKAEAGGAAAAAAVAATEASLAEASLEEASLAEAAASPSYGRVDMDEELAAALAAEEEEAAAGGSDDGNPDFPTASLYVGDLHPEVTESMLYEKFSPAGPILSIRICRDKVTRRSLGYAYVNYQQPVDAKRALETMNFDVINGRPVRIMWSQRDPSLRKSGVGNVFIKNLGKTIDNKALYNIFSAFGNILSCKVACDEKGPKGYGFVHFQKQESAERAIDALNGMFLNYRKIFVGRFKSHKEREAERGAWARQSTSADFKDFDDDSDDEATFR
Sequence	7-mer Z-score
AGUAGAA	0.369
UGCGUGU	-0.296
CGGCGCA	-0.17
CACGCUG	-0.0899
ACAUCUG	-0.117

Sample 3 — method: protein binding microarray; form: double-stranded DNA, one strand shown; sample: in vitro; concentration: not given; reference: not given; direction: higher = stronger binding
Target: Histone acetyltransferase KAT6A, winged helix 1, GST fusion (KAT6A, Homo sapiens, UniProt Q92794, residues 1-85)
Notes: 8-mer, flanks averaged, mean of 2 arrays, mostly near background
Construct (chain): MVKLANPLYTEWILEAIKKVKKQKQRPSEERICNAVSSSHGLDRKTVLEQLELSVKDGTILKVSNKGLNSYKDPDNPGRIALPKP
Sequence	E-score
ATACATAA	-0.246
CTGACAAA	-0.194
AACGACGT	0.0708

Further values, each from its own experiment
Substance	target	assay	system	setting	scale	measurement	result
PhoQ, residues 284 288 289 292 302 303 SIHLQL	PhoP, residues 12 14 15 18 19 TPWLV (Escherichia coli, UniProt P23836)	Sort-seq, item: YFP reporter	E. coli	PhoQ-PhoP variant library, added: 10 µM Mg2+	reference: high Mg2+ state, higher = stronger signaling	fold induction	13.6

Some of these lines once more (sample 3):
Sequence	E-score
AACGACGT	0.0708
